Measurements pooled from the literature.
Each numbered part is a random draw from the data of one study; scales do not carry over between parts. “And” joins repeats or separate records; there may be more than shown. Substitutions count along the parent as printed.
Sequence of UniProt Q9HBY8 (whole entry, looked up): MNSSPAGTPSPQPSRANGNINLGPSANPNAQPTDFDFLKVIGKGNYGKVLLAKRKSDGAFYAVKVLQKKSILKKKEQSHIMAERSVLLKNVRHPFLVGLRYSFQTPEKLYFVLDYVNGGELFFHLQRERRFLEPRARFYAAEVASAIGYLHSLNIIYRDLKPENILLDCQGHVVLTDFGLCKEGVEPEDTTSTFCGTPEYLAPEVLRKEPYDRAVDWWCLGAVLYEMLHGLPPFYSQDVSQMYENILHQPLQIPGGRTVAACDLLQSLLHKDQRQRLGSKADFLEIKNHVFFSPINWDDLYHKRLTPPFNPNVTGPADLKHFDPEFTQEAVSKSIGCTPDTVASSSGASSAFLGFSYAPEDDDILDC
Sequence of UniProt P33981 (whole entry, looked up): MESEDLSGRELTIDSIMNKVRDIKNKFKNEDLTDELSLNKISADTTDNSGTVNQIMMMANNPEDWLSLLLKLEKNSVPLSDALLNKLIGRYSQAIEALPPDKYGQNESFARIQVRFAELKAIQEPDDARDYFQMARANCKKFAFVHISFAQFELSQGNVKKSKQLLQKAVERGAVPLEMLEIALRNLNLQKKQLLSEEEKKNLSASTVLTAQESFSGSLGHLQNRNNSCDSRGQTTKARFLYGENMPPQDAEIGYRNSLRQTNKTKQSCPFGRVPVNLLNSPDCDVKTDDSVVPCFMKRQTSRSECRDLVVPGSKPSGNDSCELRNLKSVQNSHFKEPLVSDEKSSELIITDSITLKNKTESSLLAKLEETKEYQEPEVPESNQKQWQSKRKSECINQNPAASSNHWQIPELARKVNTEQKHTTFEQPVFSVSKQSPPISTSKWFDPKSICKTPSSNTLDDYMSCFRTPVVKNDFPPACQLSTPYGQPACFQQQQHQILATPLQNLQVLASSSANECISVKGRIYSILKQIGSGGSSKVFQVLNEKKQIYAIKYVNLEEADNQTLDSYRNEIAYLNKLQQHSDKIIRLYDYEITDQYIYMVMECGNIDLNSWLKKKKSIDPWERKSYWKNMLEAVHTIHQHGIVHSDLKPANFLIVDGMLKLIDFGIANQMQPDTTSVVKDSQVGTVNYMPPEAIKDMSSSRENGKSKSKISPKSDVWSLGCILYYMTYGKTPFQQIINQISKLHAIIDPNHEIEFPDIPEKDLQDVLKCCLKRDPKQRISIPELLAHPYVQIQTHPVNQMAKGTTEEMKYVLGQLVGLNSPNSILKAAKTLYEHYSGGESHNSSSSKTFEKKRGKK
Sequence of UniProt P0C1S8 (whole entry, looked up): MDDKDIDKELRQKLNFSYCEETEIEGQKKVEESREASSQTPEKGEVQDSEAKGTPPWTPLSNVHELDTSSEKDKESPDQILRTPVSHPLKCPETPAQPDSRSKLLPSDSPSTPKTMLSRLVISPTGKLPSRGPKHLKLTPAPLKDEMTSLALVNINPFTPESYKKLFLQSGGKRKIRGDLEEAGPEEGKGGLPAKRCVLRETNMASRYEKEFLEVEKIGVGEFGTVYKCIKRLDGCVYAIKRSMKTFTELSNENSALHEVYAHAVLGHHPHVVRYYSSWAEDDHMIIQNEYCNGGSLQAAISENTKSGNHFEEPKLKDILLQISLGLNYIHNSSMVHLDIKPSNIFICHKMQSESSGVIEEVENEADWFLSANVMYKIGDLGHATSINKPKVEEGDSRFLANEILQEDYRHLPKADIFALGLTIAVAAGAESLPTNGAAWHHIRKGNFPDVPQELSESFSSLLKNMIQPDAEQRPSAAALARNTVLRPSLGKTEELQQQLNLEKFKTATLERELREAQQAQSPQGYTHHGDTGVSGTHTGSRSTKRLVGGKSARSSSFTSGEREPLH

Study 1 — target: CCNF, cyclin fold, Cln2 fusion (human); method: yeast growth competition, sequencing; sample: yeast; setting: strong parent motif; relative to: not given; direction: higher = stronger binding; quantity: normalised enrichment score; parent: viral docking peptide; YKVKRRLVFGADD
YKVKRRLVFAADD [G10A]: 9.59
YKVKRRLVDGADD [F9D]: 1.16
YKVKRRLVFGADA [D13A]: 8.89
YKVKRRLVFEADD [G10E]: 8.15
YKKKRRLVFGADD [V3K]: 4.29
YKVKKRLVLGADD [R5K F9L]: 6.64
YKVKRRLPFGADD [V8P]: 6.65
YKGKRRLVFGADD [V3G]: 8.2

Study 2 — read-out: cell-free assay; method: competition with immobilised ligand; concentration: 1 µM; quantity: remaining binding
Compound: Cn1cncc1[C@](O)(COc1ccc(C#N)cc1-c1ccc(OC(F)(F)F)cc1)c1ccc(C#N)cc1
Wee1-like protein kinase 2 (WEE2, Homo sapiens, UniProt P0C1S8): 84%
Serine/threonine-protein kinase Sgk2 (SGK2, Homo sapiens, UniProt Q9HBY8): 100%
Dual specificity protein kinase TTK (TTK, Homo sapiens, UniProt P33981): 100%

Study 3 — quantity: viability
Compound: CC[C@@H](C)c1nc2cc(Nc3ccnc4ccc(S(=O)(=O)C(C)C)cc34)ccc2s1.Cl
L929 RIPK3 knockout; 6.25 µM, together with: zVAD: 99.5% and 105% and 102%
HT-29; necroptosis protection, CCK-8; 0.156 µM, together with: TNF-α SMAC mimetic zVAD: 23% and 21.2% and 21.7% and 20% and 12.7%
L929 RIPK3 knockout; 0.781 µM: 103% and 101% and 102%
L929; CCK-8; 100 µM, together with: zVAD: 38.1% and 39.3% and 40.9% and 39.2%
L929 RIPK3 knockout; 50 µM, together with: zVAD: 35.8% and 37.2% and 39.5% and 36.4%
L929; CCK-8; 3.125 µM, together with: zVAD: 100% and 97.5% and 101% and 103%
L929; CCK-8; 50 µM: 42.9% and 42.7% and 34.7% and 34.8%
HT-29; necroptosis protection, CCK-8; 0.625 µM, together with: TNF-α SMAC mimetic zVAD: 26.3% and 20.4% and 27% and 25.6%
L929 RIPK3 knockout; 0.781 µM, together with: zVAD: 101% and 99.1% and 105% and 102%
L929; CCK-8; 1.563 µM, together with: zVAD: 97.8% and 96.5% and 100% and 97.5%
L929; CCK-8; 50 µM, together with: zVAD: 42.4% and 34.4% and 45.1% and 35.2% and 35.3%
L929 RIPK3 knockout; 6.25 µM: 103% and 99.2% and 110% and 105%

Study 4 — read-out: peptide-MHC binding; form: peptide; concentration: concentration not given; quantity: binding
Target: HLA class I histocompatibility antigen, C alpha chain, allele C*04:01 (Homo sapiens, UniProt P10321)
RMYWGVNPK: inactive
RSDEYVAYY: inactive
AQRAAGPSV: inactive
RPAGARAAF: inactive
RPRVAQLTF: inactive
SPAAYVLPL: inactive
TEAEKWPFF: inactive
LLDEPTNHL: inactive

Excerpt of the above (study 3):
L929 RIPK3 knockout; 0.781 µM: 103% and 101% and 102%
L929; CCK-8; 100 µM, together with: zVAD: 38.1% and 39.3% and 40.9% and 39.2%
L929 RIPK3 knockout; 50 µM, together with: zVAD: 35.8% and 37.2% and 39.5% and 36.4%
